Results collected from several papers.
Lines come from different studies, so protocols differ. Numbers after ± are the reported error.
CHRM1: Muscarinic acetylcholine receptor M1 (CHRM1, Homo sapiens, UniProt P11229)
CHRM4: Muscarinic acetylcholine receptor M4 (CHRM4, Homo sapiens, UniProt P08173)
SCN10A: Sodium channel protein type 10 subunit alpha (SCN10A, Homo sapiens, UniProt Q9Y5Y9)
Prkar2b S112A holoenzyme with catalytic subunit: cAMP-dependent protein kinase type II-beta regulatory subunit, holoenzyme with catalytic subunit (Prkar2b, Rattus norvegicus, UniProt P12369, S112A)
T1: DNA hairpin, hairpin; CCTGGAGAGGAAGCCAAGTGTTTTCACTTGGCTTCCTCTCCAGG
T2: c-di-GMP riboswitch (Clostridium acetobutylicum); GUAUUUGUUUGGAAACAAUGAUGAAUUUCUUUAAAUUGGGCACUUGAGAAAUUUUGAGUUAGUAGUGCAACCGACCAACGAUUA
T3: ssRNA, 16S rRNA A-site model (Escherichia coli); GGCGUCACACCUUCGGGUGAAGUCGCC

Molecule | target | assay | test system | conditions | scale | measurement | value
CN(C)CCCNC(=O)CCNC(=O)c1cc(NC(=O)c2cc(NC(=O)c3nc(NC(=O)c4cc(NC(=O)CCCNC(=O)c5cc(NC(=O)c6cc(NC(=O)c7nc(NC(=O)c8nccn8C)cn7C)cn6C)cn5C)cn4C)cn3C)cn2C)cn1C | T1, DNA hairpin, hairpin | competitor, competition fluorescence titration | – | pH 7.4, 25 °C, NaCl 50 mM, together with: TAMRA-HP1 | – | Kd | 1.1 nM
O=C(NCc1nnc2ccc3ccccc3n12)c1ccc(O)c(Br)c1 | IDO1 (Homo sapiens, UniProt P14902) | kynurenine production, inhibitor, refers to: L-kynurenine | A-375 | 10 µM, 48 h, together with: IFN-γ | – | inhibition | > 50%
O=S(=O)(Nc1ccccc1)C1CC2OC1C(c1ccc(O)cc1)=C2c1ccc(O)cc1 (stereo not shown) | ESR2 (Homo sapiens, UniProt Q92731) | reporter gene, antagonist | HepG2 | together with: estradiol 10 nM | relative to: E2 response, negative is inverse agonism | efficacy | 21 ± 6%
NS(=O)(=O)c1ccc(COc2ccccc2-c2cc(=O)n(C3CCCCC3O)cn2)cc1 (stereo not shown) | CHRM1 | allosteric agonist, IP1 accumulation | CHO-M1 cells | 1 µM, unit not given | relative to: maximum ACh response | change in baseline activity | 23.4 ± 2.3
CSc1nc(C)c(-c2ccnc(Nc3ccc(N4CCOCC4)cc3)c2)[nH]1 | MAPK10 (Homo sapiens, UniProt P53779) | thermal stability, nanoDSF | – | 50 µM | – | melting temperature | 54.8 °C
Clc1ccc2[nH]ccc2c1 | Dehaloperoxidase B, ferric (Amphitrite ornata, UniProt Q9NAV7) | substrate, HPLC | 5% methanol | 5 min, pH 7, 25 °C, enzyme 10 µM, together with: H2O2 500 µM | – | conversion | 37.5%
O=c1cc(-c2ccccc2OCc2ccc(-c3ncco3)cc2)ncn1C1CCCCC1O (stereo not shown) | CHRM1 | allosteric agonist, IP1 accumulation | CHO-M1 cells | 10 µM, unit not given | relative to: maximum ACh response | change in baseline activity | 58.8 ± 3.8
GRTKQEARKSTGG | SETD7 (Homo sapiens, UniProt Q8WTS6) | peptide methylation, substrate, MALDI-TOF MS | peptide | 10 µM, 3 h, pH 8.0, 37 °C, enzyme 500 nM, together with: SAM 30 µM | – | methylation conversion | ~36%
CCNC(=O)c1ccc(COc2ccccc2-c2cc(=O)n(C3CCCCC3O)cn2)cc1 (stereo not shown) | CHRM1 | allosteric agonist, IP1 accumulation | CHO-M1 cells | 10 µM, unit not given | relative to: maximum ACh response | change in baseline activity | 99.8 ± 2.7
CCCc1nc2ccccc2n1Cc1ccc(-c2ccccc2C(=O)OC)cc1 | PPARG (Homo sapiens, UniProt P37231) | – | COS-7 | 10 µM, 39 h | – | Emax | 20.5%
COc1ccc(C)c2sc(NC(=O)C3=C(C)OCCO3)nc12 | CHRM4 | calcium mobilization, positive allosteric modulator | CHO expressing hM4 and Gqi5 | concentration not given, together with: acetylcholine EC20 | – | activity | inactive
CCCCNc1ccc(C(=O)OCCN(CC)CC)c(OC)c1 | ryanodine receptor 2, sheep | [3H]ryanodine binding rate, inhibitor | cardiac SR vesicles | – | – | threshold concentration | > 1 µM
COC(=O)c1scc(C)c1NC(=O)C(C)N1CCN(C)CC1 (stereo not shown) | SCN10A | cell membrane chromatography | – | – | higher = stronger binding | capacity factor k′ | 49
O=c1cc(-c2ccccc2OCc2ccc(-c3cn[nH]c3)cc2)ncn1C1CCCCC1O (stereo not shown) | CHRM1 | positive allosteric modulator, IP1 accumulation | CHO-M1 cells | 1 µM, 60 min, 37 °C, together with: ACh | relative to: ACh alone, higher = stronger potentiation | ΔpEC50 of ACh | 1.69 ± 0.18 log units
O=C(O)CO | Transcriptional regulator GlcR (Paracoccus denitrificans, UniProt A1BAC0) | inducer, in vitro transcription fluorescence | – | 10 mM | relative to: no effector | transcription derepression | 9.4 fold
O=C(O)[C@H]1O[C@@H](Oc2ccc3c(=O)cc(-c4ccccc4)oc3c2)[C@H](O)[C@@H](O)[C@@H]1O | UGT1A1 (Homo sapiens, UniProt P22309) | glucuronidation, substrate, Supersomes | – | – | – | Vmax | 1.34 ± 0.02 nmol/mg/min
O=c1cc(-c2ccccc2OCc2ccc(-c3cn[nH]c3)cc2)ccn1C1CCCCC1O (stereo not shown) | CHRM1 | IP1 accumulation, positive allosteric modulator, operational allosteric model | human cells | pKB fixed to published value, together with: acetylcholine | – | α (cooperativity) | 1.06 ± 0.08
CSc1ccc(/C=C2/C(C)=C(CC(=O)O)c3cc(F)ccc32)cc1 | PDE1A (Homo sapiens, UniProt P54750) | cGMP hydrolysis, inhibitor | – | up to 200 µM | – | IC50 | inactive
CCCSc1nc2c([nH]1)c(=S)n(C)c(=S)n2C | PGR (Homo sapiens, UniProt P06401) | reporter gene, antagonist, MMTV-luciferase | T47D/A1-2 | 10 µM, 24 h, together with: 5 nM progesterone | relative to: maximal activity | remaining activity | 64%
O=C(O)c1ccccc1O | unc-8 (Caenorhabditis elegans, UniProt Q21974, G387E) | ion current, two-electrode voltage clamp | Xenopus oocytes coexpressing MEC-2 | 30 µM, -85 mV | relative to: uninjected oocytes, positive = inhibition | current change | -0.062 µA
CCCCCCNc1nc2c(N)ncnc2n1[C@@H]1O[C@@H]2COP(=O)(O)OC2[C@@H]1O (stereo partly shown) | Prkar2b S112A holoenzyme with catalytic subunit | PKA holoenzyme activation, activator, fluorescence anisotropy | – | – | relative to: RIIβ over RIα, higher = RIIβ-selective | selectivity ratio | 0.3
CNC(=O)c1ccc(COc2ccccc2-c2cc(=O)n(C3CCCCC3O)cn2)cc1 (stereo not shown) | CHRM1 | allosteric agonist, IP1 accumulation | CHO-M1 cells | 10 µM, unit not given | relative to: maximum ACh response | change in baseline activity | 102 ± 4

Molecule | target | assay | test system | conditions | scale | measurement | value
O=P(O)(O)O | ldh (Lactococcus cremoris, UniProt A2RKA4) | pyruvate reduction, allosteric inhibitor | – | 30000 µM, pH 7.0, 30 °C, together with: FBP 1 mM | – | remaining activity | 78 ± 0.8%
O=c1ccn([C@H]2C[C@H](O)[C@@H](COP(=O)(O)O)O2)c(=O)[nH]1 | thyX (Mycobacterium tuberculosis, UniProt P9WG57) | oxidase activity, activator | – | aerobic, no CH2H4folate, together with: 200 µM NADPH | – | activation constant | 17 ± 4 µM
COC(=O)c1scc(C)c1NC(=O)C(C)N1CCOCC1C (stereo not shown) | SCN10A | cell membrane chromatography | – | – | higher = stronger binding | capacity factor k′ | 15
C=CC(C)(O)Cc1cc2cc(-c3ccc(O)cc3O)c(=O)oc2cc1O (stereo not shown) | quinone reductase | inducer | Hepa1c1c7 | – | – | concentration doubling activity | > 20 µM
O=c1cc(N2CCOCC2)oc2c(OCc3cccnc3)cccc12 | PIK3CA (Homo sapiens, UniProt P42336, Q859D) | enzyme activity | – | concentration not given, Gln-Asp swap | relative to: wild type | fold change in selectivity | 13.7
[Na+].[Na+].[Na+].[O]=[V]([O-])([O-])[O-] | ALPI (Bos taurus, UniProt P19111) | – | – | 0.25 µM, together with: DiFMUP substrate | – | Km | 0.19 ± 0.04 µM
Cc1nnsc1C(=O)Nc1ccc(-n2nc(C(F)(F)F)cc2C(F)(F)F)cc1 | TRPC3 (Homo sapiens, UniProt Q13507) | TRPC3 receptor-operated current, inhibitor, patch clamp | HEK293 transiently expressing TRPC3 | 3 µM, together with: carbachol maximal activation | – | peak current | -1.54 ± 0.53 pA/pF
COC(=O)c1scc(C)c1NC(=O)C(C)N1CC(C)CC(C)C1 (stereo not shown) | SCN10A | cell membrane chromatography | – | – | higher = stronger binding | capacity factor k′ | 43
Nc1nc2c(ncn2[C@@H]2O[C@@H]3COP(=O)(O)O[C@H]4[C@@H](F)[C@H](n5cnc6c(=O)[nH]c(N)nc65)O[C@@H]4COP(=O)(O)O[C@H]3[C@H]2F)c(=O)[nH]1 | T2, c-di-GMP riboswitch (Clostridium acetobutylicum) | competitor, competition gel-shift | – | 4-24 h, pH 6.8, 22 °C, together with: radiolabelled c-di-GMP | – | Kd | 5.8 nM
CS(=O)(=O)c1ccc(COc2ccccc2-c2cc(=O)n(C3CCCCC3O)cn2)cc1 (stereo not shown) | CHRM1 | positive allosteric modulator, IP1 accumulation | CHO-M1 cells | 10 µM, 60 min, 37 °C, together with: ACh | relative to: ACh alone, higher = stronger potentiation | ΔpEC50 of ACh | 1.27 ± 0.17 log units
C[C@@H](O)[C@H](NC(=O)[C@H](CS)NC(=O)[C@@H](N)CO)C(=O)O | GAPDH (Homo sapiens, UniProt P04406) | enzyme activity, spectrophotometric | – | 10 µM | relative to: vehicle | remaining activity | 100 ± 1.19%
N[C@@H](CC(=O)O)C(=O)O | Excitatory amino acid transporter 3 (SLC1A1, Oryctolagus cuniculus, UniProt P31597, D444E) | sodium dependence of anion current | Xenopus oocytes | 2 mM, together with: thiocyanate 10 mM | – | Hill coefficient | 2.7 ± 0.4
Cn1ncc2ccc(COc3ccccc3-c3cc(=O)n(C4CCCCC4O)cn3)cc21 (stereo not shown) | CHRM1 | allosteric agonist, IP1 accumulation | CHO-M1 cells | 1 µM, unit not given | relative to: maximum ACh response | change in baseline activity | 46.3 ± 1.8
CIKVAVS | human polyclonal IgM rheumatoid factor | binding to mAb II-481 | peptide | combined CDR peptides, serum SOR | – | maximum inhibition | 0%
COc1ccc(C)c2sc(NC(=O)c3ccc(F)cc3)nc12 | CHRM4 | calcium mobilization, positive allosteric modulator | CHO expressing hM4 and Gqi5 | concentration not given, together with: acetylcholine EC20 | – | activity | inactive
CNc1nc2c(N)ncnc2n1[C@@H]1O[C@@H]2COP(=O)([O-])O[C@H]2[C@H]1O.[Na+] | Prkar2b S112A holoenzyme with catalytic subunit | PKA holoenzyme activation, activator, fluorescence anisotropy | – | – | relative to: RIIβ over RIα, higher = RIIβ-selective | selectivity ratio | 0.5
Cn1ncc2cc(COc3ccccc3-c3cc(=O)n(C4CCCCC4O)cn3)ccc21 (stereo not shown) | CHRM1 | positive allosteric modulator, IP1 accumulation | CHO-M1 cells | 1 µM, 60 min, 37 °C, together with: ACh | relative to: ACh alone, higher = stronger potentiation | ΔpEC50 of ACh | 1.24 ± 0.23 log units
COc1ccc(C)c2sc(C(=O)Nc3ccc(C)nc3)nc12 | CHRM4 | calcium mobilization, positive allosteric modulator | CHO expressing hM4 and Gqi5 | concentration not given, together with: acetylcholine EC20 | – | activity | inactive
NC[C@@H]1O[C@H](O[C@H]2[C@@H](O)[C@H](O[C@@H]3[C@@H](O)[C@H](N)C[C@H](N)[C@H]3O[C@H]3O[C@H](CN)[C@@H](O)[C@H](O)[C@H]3N)O[C@@H]2CO)[C@H](N)[C@@H](O)[C@@H]1O | T3, ssRNA, 16S rRNA A-site model (Escherichia coli) | competition with F-neo, competitor, fluorescence displacement | – | pH 7.0, NaCl 50 mM, together with: F-neo 0.1 µM | – | IC50 | 89 nM
COc1ccc2cc1Oc1ccc(cc1)C[C@H]1c3c(cc4c(c3Oc3cc5c(cc3OC)CCN(C)[C@@H]5C2)OCO4)CCN1C | Heat shock protein HSP 90-alpha, C-terminal domain (HSP90AA1, Homo sapiens, UniProt P07900) | binding, zonal affinity chromatography | – | pH 7.4, 25 °C | – | retention time | 44 min
N#Cc1cnc(Nc2nc3ccccc3o2)nc1-c1ccc(F)c(F)c1 | Grm5 (Rattus norvegicus, UniProt P31424) | calcium mobilization, negative allosteric modulator | – | together with: glutamate EC80 | relative to: maximal glutamate response | maximal response | 9.6 ± 0.7%

Repeated from above:
Molecule | target | assay | test system | conditions | scale | measurement | value
COC(=O)c1scc(C)c1NC(=O)C(C)N1CCOCC1C (stereo not shown) | SCN10A | cell membrane chromatography | – | – | higher = stronger binding | capacity factor k′ | 15
C=CC(C)(O)Cc1cc2cc(-c3ccc(O)cc3O)c(=O)oc2cc1O (stereo not shown) | quinone reductase | inducer | Hepa1c1c7 | – | – | concentration doubling activity | > 20 µM
